Measured values from different studies.
± marks the error that the study gave.
Cell line: HEK293

Structure (SMILES) = O=c1[nH]cc(F)c(=O)[nH]1; test = cell viability, MTT; setting = 48 h, high affinity phase; endpoint = EC50; value = 93.3 µM
Structure (SMILES) = FC(F)(F)Oc1ccc(-c2cc3ccccc3[nH]2)cc1; test = cell growth or viability; setting = 50 µM; endpoint = viability; value = 74.8%
Structure (SMILES) = Cn1c(=O)c2c(nc(OCc3cn(CCCc4ccccc4)nn3)n2C)n(C)c1=O; test = cell growth or viability, MTT; setting = 24 h; endpoint = IC50; value = > 300 µM
Structure (SMILES) = CON=Cc1c(-c2ccccc2)[nH]c2ccccc12; test = cell growth or viability; setting = 50 µM; endpoint = viability; value = 51.8%
Structure (SMILES) = C[C@]1(CO)CN(c2cc(C(=O)Nc3ccc4c(c3)-c3c(c(C(N)=O)nn3-c3ccc(F)cc3)CC4)c(Cl)cn2)C[C@@]1(C)CO; test = cell growth or viability, ATP luminescence; setting = 24 h; endpoint = IC50; value = 1.23 µM
Structure (SMILES) = Nc1nc2nc[nH]c2c(=S)[nH]1; test = cell viability, MTT; setting = 48 h, low affinity phase; endpoint = EC50; value = 1410 µM
Structure (SMILES) = [O-][S+](c1ccccc1)c1ccc2nnnn2n1 (stereo not shown); test = cell growth or viability, ATP luminescence; setting = 24 h; endpoint = IC50; value = > 100 µM
Structure (SMILES) = Nc1ccn([C@@H]2O[C@H](CO)[C@@H](O)[C@@H]2O)c(=O)n1; test = cell viability, MTT; setting = 48 h, low affinity phase; endpoint = EC50; value = 6030 µM
Structure (SMILES) = Nc1ccccc1C#Cc1cc(F)cc(F)c1; test = cell growth or viability; setting = 50 µM; endpoint = viability; value = 121%
Structure (SMILES) = Nc1ccn([C@@H]2O[C@H](CO)[C@@H](O)C2(F)F)c(=O)n1; test = cell viability, MTT; setting = 48 h, high affinity phase; endpoint = EC50; value = 0.0417 µM
Structure (SMILES) = O=[N+]([O-])c1ccc2[nH]c(-c3ccccc3)cc2c1; test = cell growth or viability; setting = 50 µM; endpoint = viability; value = 68.2%
Structure (SMILES) = CCN(CC)CCCC(C)Nc1ccnc2cc(Cl)ccc12 (stereo not shown); test = oxygen consumption; endpoint = IC50; value = > 12 µM
Structure (SMILES) = CCCCCCn1cc(COc2nc3c(c(=O)n(C)c(=O)n3C)n2C)nn1; test = cell growth or viability, MTT; setting = 24 h; endpoint = IC50; value = > 300 µM
Structure (SMILES) = Nc1ccc2[nH]c(-c3ccccc3)cc2c1; test = cell growth or viability; setting = 50 µM; endpoint = viability; value = 73.8%
Structure (SMILES) = Sc1ncnc2nc[nH]c12; test = cell viability, MTT; setting = 48 h, high affinity phase; endpoint = EC50; value = 7.76 µM
Structure (SMILES) = CO[C@H]1[C@@H](O)[C@H]([n+]2cn(C)c3c(=O)[nH]c(N)nc32)O[C@@H]1COP(=O)([O-])OP(=O)(O)OP(=O)(O)OC[C@H]1O[C@@H](n2cnc3c(=O)[nH]c(N)nc32)[C@H](O)[C@@H]1O; test = luciferase reporter; setting = mRNA capped with cpd; how to read = relative to: m7GpppG-capped mRNA; endpoint = relative protein expression; value = 1.29 ± 0.25
Structure (SMILES) = Clc1ccc2[nH]c(-c3ccccc3)cc2c1; test = cell growth or viability; setting = 50 µM; endpoint = viability; value = 113%
Structure (SMILES) = CC[PH](CC)(CC)[Au][S][C@@H]1O[C@H](COC(C)=O)[C@@H](OC(C)=O)[C@H](OC(C)=O)[C@H]1OC(C)=O; test = cell growth or viability, MTT; endpoint = IC50; value = 1.7 µM
Structure (SMILES) = Cc1cc2nc(NCCCO)n(CC(=O)c3cc(C(C)(C)C)c(O)c(C(C)(C)C)c3)c2cc1C; test = cell growth or viability, ATP luminescence; setting = 24 h; endpoint = IC50; value = 6.42 µM
Structure (SMILES) = CCCCCc1ccc(-c2cc3ccccc3[nH]2)cc1; test = cell growth or viability; setting = 50 µM; endpoint = viability; value = 86.6%
Structure (SMILES) = CCC(=O)O; test = mouse C10orf99 promoter luciferase, activator; setting = concentration not given, 12 h, serum-free medium; how to read = relative to: empty vector; endpoint = reporter activity; value = increased
Structure (SMILES) = CCCCCCCc1c(C)[nH]c2cc(OC)ccc2c1=O; test = oxygen consumption; endpoint = IC50; value = > 25 µM
Structure (SMILES) = CCCCCCCCCCn1cc(COc2nc3c(c(=O)n(C)c(=O)n3C)n2C)nn1; test = cell growth or viability, MTT; setting = 24 h; endpoint = IC50; value = 194 µM
Structure (SMILES) = CN1[C@@H]2CC[C@H]1C[C@@H](OC(=O)C(CO)c1ccccc1)C2 (stereo partly shown); test = ACh-induced Ca2+ response; setting = 100 µM, 1 h, together with: ACh 100 µM; endpoint = inhibition; value = inhibited
Structure (SMILES) = CCCCCCCn1cc(COc2nc3c(c(=O)n(C)c(=O)n3C)n2C)nn1; test = cell growth or viability, MTT; setting = 24 h; endpoint = IC50; value = > 300 µM
Structure (SMILES) = COc1ccc(-c2cc3ccccc3[nH]2)cc1; test = cell growth or viability; setting = 50 µM; endpoint = viability; value = 85%
Structure (SMILES) = CC[C@H](C)[C@H](NC(=O)OCc1ccccc1)C(=O)N[C@@H](CCC(=O)OC(C)(C)C)C(=O)N[C@@H](C)C(=O)N[C@H](C=O)CC(C)C; test = cell growth or viability, ATP luminescence; setting = 24 h; endpoint = IC50; value = 0.373 µM
Structure (SMILES) = CCCCCn1cc(COc2nc3c(c(=O)n(C)c(=O)n3C)n2C)nn1; test = cell growth or viability, MTT; setting = 24 h; endpoint = IC50; value = > 300 µM

For quick reference, copied from above:
Structure (SMILES) = CCCCCCCCCCn1cc(COc2nc3c(c(=O)n(C)c(=O)n3C)n2C)nn1; test = cell growth or viability, MTT; setting = 24 h; endpoint = IC50; value = 194 µM
Structure (SMILES) = CN1[C@@H]2CC[C@H]1C[C@@H](OC(=O)C(CO)c1ccccc1)C2 (stereo partly shown); test = ACh-induced Ca2+ response; setting = 100 µM, 1 h, together with: ACh 100 µM; endpoint = inhibition; value = inhibited
Structure (SMILES) = CCCCCCCn1cc(COc2nc3c(c(=O)n(C)c(=O)n3C)n2C)nn1; test = cell growth or viability, MTT; setting = 24 h; endpoint = IC50; value = > 300 µM
